Published values gathered from unrelated publications.
Values joined by “and” are separate records of one study, mostly repeats; a detail may differ. ± gives the spread as reported.
CYP3A4: Cytochrome P450 3A4 (CYP3A4, Homo sapiens, UniProt P08684)

Structure (SMILES)	tested on	test	system	conditions	measurement	result
CCc1nnc(NS(=O)(=O)c2ccc(NC(=O)c3cccc4ccccc34)cc2)s1	CYP3A4	–	–	10 µM	inhibition	< 10%
Cc1cc(-c2ccc3ccccc3c2)nnc1NCCN1CCN(C)CC1	CYP3A4	substrate	recombinant enzyme	100 nM, 1 h	remaining compound	76%
CN[C@@H]1[C@H](O)[C@H](NC)[C@H]2O[C@]3(O)[C@H](O[C@@H]2[C@H]1O)O[C@H](C)C[C@H]3NC(=O)Cc1ccc(Cl)cn1	CYP3A4	–	–	10 µM	inhibition	2%
O=C1NC2(CC2)COc2ncc(F)cc2[C@H]2COCCN2c2ccn3ncc1c3n2	–	–	Sprague-Dawley rat, female, heart	oral, 20 mg/kg/day, 4 weeks	organ weight	1.35 ± 0.228 g
O=C(CN1C(=O)C2(CCN(C(=O)c3ccc4[nH]ncc4c3)CC2)c2ccccc21)NCC(F)(F)F	CYP3A4	enzyme activity, inhibitor	–	–	IC50	> 50 µM
Cc1ccc(N2CCC(N(C)C)CC2)cc1C(=O)N[C@H](C)c1cc(-c2cnn(C)c2)nc2ccccc12	Vero E6	–	–	125 µM	viability	0.685% and 0.856%
Cc1[nH]nc2c1N=C(c1ccccc1Cl)c1cnc(N3CCOCC3)cc1N2	CYP3A4	enzyme activity, inhibitor	human liver microsomes	added: midazolam	IC50	4.42 µM
CNC(=O)C1CCCN(C(=O)C2CC3CCC2N3C(=O)[C@@H]2C[C@@H](O)CN2C(=O)NCc2cccc(Cl)c2F)C1 (mixture of isomers)	CYP3A4	inhibitor	human liver microsomes	added: midazolam	IC50	> 50 µM
N#Cc1c(Cl)ccc2c1C1(CCN(C(=O)c3cnc4[nH]ncc4c3)CC1)C(=O)N2CC(=O)NCC(F)(F)F	CYP3A4	enzyme activity, inhibitor	–	–	IC50	> 50 µM
Cc1ccc(OCCN(C)C)cc1C(=O)N[C@H](C)c1cc(-c2scnc2C)nc2ccccc12	Vero E6	–	–	250 µM	viability	0.2% and -0.4%
N#Cc1cccc2c1C1(CCN(C(=O)c3cnc4[nH]ncc4c3)CC1)C(=O)N2CC(=O)NCC(F)(F)F	CYP3A4	enzyme activity, inhibitor	–	–	IC50	42 µM
C[C@H](NCc1ccc(-c2ccc(C(F)(F)F)cc2)cc1)C(N)=O	CYP3A4	P450-Glo luminescence	potassium phosphate buffer	10 µM, pH 7.4, isoform 3A4	inhibition	98.8%

A few entries again:
Structure (SMILES)	tested on	test	system	conditions	measurement	result
N#Cc1cccc2c1C1(CCN(C(=O)c3cnc4[nH]ncc4c3)CC1)C(=O)N2CC(=O)NCC(F)(F)F	CYP3A4	enzyme activity, inhibitor	–	–	IC50	42 µM
